Experimental data from different studies.
Lines come from different studies, so protocols differ. ± marks the error that the study gave.

| Compound | cell line | observed | technique | time | notes | with | IC50 [µM] |
| --- | --- | --- | --- | --- | --- | --- | --- |
| CCN(CC)C1=[S+][Au-2]2([S]1)[c]1ccccc1-c1cccc[n+]12.F[P-](F)(F)(F)(F)F (centres unmarked) | BT-333 glioblastoma | – | MTT | 72 h | – | – | 0.68 ± 0.01 |
| Cc1c(C)c(C)[c-](C)c1C.OCc1ccnc(-c2[c-]cccc2)c1.[Cl-].[Ir+3] | A2780 cells | cell growth | SRB | 24 h exposure, 72 h recovery | – | – | 47 ± 1 |
| Cc1cc(C#N)cc(C)c1Oc1cc(Nc2ccc(C#N)cc2)nc2ccncc12 | MOLT-3 | – | – | 48 h | – | – | > 128 |
| CCCCOc1nc(N)c2[nH]c(=O)n(CCCN(CCCN3CCOCC3)Cc3cccc(CC(=O)OC)c3)c2n1 | human PBMC | IL-5 release | – | 2 d | – | PHA | 0.001 |
| C=C[C@H](OC(C)=O)c1ccc(OC(C)=O)cc1 | RT-112 | cell growth or viability | MTT | 24 h | – | – | 14.1 |
| CC1CC(=O)N(CCCCCN)N=C1c1ccc(NC(=O)N2Cc3ccncc3C2)cc1 (centres unmarked) | A549-C4.4a | cell viability | CellTiter-Glo | – | – | – | 0.097 |
| CC1=CC(C)=[N+]2C1=C(CO)c1c(C)cc(C)n1[B-]2(C)C | RPE-1 | cell growth or viability | resazurin | – | dark | – | > 100 |
| C=C1C(=O)[C@@]23CC[C@@H]4[C@](C)(COC(C)=O)CCC[C@@]4(C)[C@@H]2[C@@H](O)C[C@@H]1C3 (single isomer, unassigned) | 786-0 | cell growth or viability | MTT | – | – | – | 8 |
| Cc1cc(C)c(-n2c3c([n+](-c4c(C)cc(C)cc4C)[c]2[Cu-][Cl])-c2cccc4cccc-3c24)c(C)c1 | C13 cisplatin-resistant | cell viability | MTT | 72 h | – | – | 4 ± 1 |
| CCCCCCCCC=CCCCCCCCC(=O)OCC1OC(n2ccc(N)nc2=O)C(F)(F)C1O (centres unmarked) | THX | cell growth | – | – | – | NBMPR 100 µM | 0.0063 ± 0.0051 |
| CN1CCC2(CC1)C/C(=N\NC(=O)Nc1ccc([N+](=O)[O-])cc1)c1ccccc1O2 | MCF7, HCT-116, PC-3 | cell growth | MTT | – | range over cell lines | – | 10.8 to 20.7 |
| S=c1n(-c2ccccc2)c2c3ccccc3nc3[n+]2[n]1[Ir-3]12([S]3)([c]3cccc4ccc5ccc[n+]1c5c34)[c]1cccc3ccc4ccc[n+]2c4c13 | MRC9 | cell viability | MTT | – | dark | – | > 50 |
| CCCCCCCCCC[N]1C(=O)c2cccc[n+]2[Ir]1[Cl].Cc1c(C)c(C)[c-](C)c1C | SH-SY5Y | cell growth or viability | SRB | 24 h | – | – | 10 |
| [Cl][Pd-]1([Cl])[S]C(Nc2ccccc2)=N[N+]1=Cc1cccs1 | CRFK | cell growth or viability | – | – | – | – | 91.9 |
| [Cl][Au+][Cl].[O-][Cl+3]([O-])([O-])[O-].c1ccc(P(=NCc2ccccn2)(c2ccccc2)c2ccccc2)cc1 | A2780cisR (cisplatin-resistant) | cell growth | MTT | 74 h | 1% DMSO | – | 8 ± 2.4 |
| Cc1c(C)n(-c2c(C(C)C)cccc2C(C)C)c(=[Se])n1-c1c(C(C)C)cccc1C(C)C.[Cl][Au] | LoVo MDR | – | MTT | 72 h | – | – | 1.9 ± 0.1 |
| CC(C)=CCC1=C([O-])C(=O)c2ccccc2C1=O.O=[N+]([O-])[O-].[Cu+2].c1ccc(-c2cccc(-c3ccccn3)n2)nc1 | MRC5 normal fibroblasts | cell viability | MTT | 24 h | – | – | 44.1 ± 2.8 |
| CC1=C2[O][Ru-]([Cl])[O+]=C2C=CN1CCCCCCN1C=CC2=[O+][Ru-]([Cl])[O]C2=C1C.Cc1ccc(C(C)C)cc1.Cc1ccc(C(C)C)cc1 | DAN-G | cell growth or viability | crystal violet | 96 h | – | – | > 20 |
| NS(=O)(=O)c1ccc(NC(=O)NN[C@@H]2OC[C@H](O)[C@H](O)[C@H]2O)cc1 | HCEC | cell growth or viability | MTT | 96 h | – | – | > 100 |
| Cc1nn(C)c(O)c1-c1nc2cc(Cl)c(Cl)cc2[nH]c1=O | TF-1 | cell growth or viability | resazurin | 72 h | – | – | 15.5 |

Some of these lines once more:
| Compound | cell line | observed | technique | time | notes | with | IC50 [µM] |
| --- | --- | --- | --- | --- | --- | --- | --- |
| S=c1n(-c2ccccc2)c2c3ccccc3nc3[n+]2[n]1[Ir-3]12([S]3)([c]3cccc4ccc5ccc[n+]1c5c34)[c]1cccc3ccc4ccc[n+]2c4c13 | MRC9 | cell viability | MTT | – | dark | – | > 50 |
